Assay results from different studies.
Every numbered part comes from another study and shows a few of its results, in no order. Substitutions count along the parent as printed.

Study 1
Target: Fragile X messenger ribonucleoprotein 1, C-terminal low-complexity region (Fmr1, Mus musculus, UniProt P35922)
Method: RNA Bind-n-Seq
Form: RNA
Matrix: in vitro
Tested at: 200 nM
Setting: whole 134-nt RNA, ends assumed
With: 150 mM LiCl
Baseline: input library
Direction: higher = stronger binding
Each molecule: 7-deaza-guanosine replaces G
With `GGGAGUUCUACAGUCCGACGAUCUAACUUUAAAGGAGGAUCUGAUGGAUAUGGCAGUGGACGUGGAUUUGGGGAUGGCUAUAAUGGGUAUGGAGGAGGACCUGGAGGUGGCAAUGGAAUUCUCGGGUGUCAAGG` the log2 enrichment was 0.54.
The log2 enrichment of `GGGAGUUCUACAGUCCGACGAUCAAGUCCUGUGCUACACAUCGUAUGUACCGAAUCGGGGAGGGGUGGGGAAAAAGGGGAAAGUAUUAUGUUACGCCGUUCGGAUCUGCACUUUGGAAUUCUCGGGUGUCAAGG` is reported as -0.1.
The log2 enrichment of `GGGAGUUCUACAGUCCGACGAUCCAAGUCCUGUGCUACACAUCGUAUGUACCGAAUCGGUUUUUUUGGAAAAAGGAGGAAAGUAUUAUGUUACGCCGUUCGGAUCUGCACUUCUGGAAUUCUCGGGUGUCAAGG` is reported as -1.56.
`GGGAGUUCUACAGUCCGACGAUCGCAGGAAGUAAAAACAAAUGGAAAUGCUUCGGAUAGUGGCAGGGGUGGGGGAUGCUAAGGAAAGGGUGGGAUGGGAGUGGGUAAAGAGUUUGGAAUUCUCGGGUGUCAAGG` gave a log2 enrichment of 1.13.
With `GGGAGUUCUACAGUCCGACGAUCCAAGUCCUGUGCUACACAUCGUAUGUACCGAAUCGGGGCCCGGCCCGGGCCCGGGAAAGUAUUAUGUUACGCCGUUCGGAUCUGCACUUCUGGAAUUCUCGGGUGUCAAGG` the log2 enrichment was -1.69.
With `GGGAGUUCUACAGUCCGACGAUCUCCUGUGCUACACAUCGUAUGUACCGAAUCGGGUUUUUUUGGGUUUUUGGGUUUUUGGGAAAGUAUUAUGUUACGCCGUUCGGAUCUGCAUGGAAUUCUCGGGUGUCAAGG` the log2 enrichment was 0.263.
For `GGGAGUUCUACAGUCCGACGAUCCUGUGCUACACAUCGUAUGUACCGAAUCGGGAAAAAAAGGGAAAAAAAGGGAAAAAAAGGGAAAGUAUUAUGUUACGCCGUUCGGAUCUGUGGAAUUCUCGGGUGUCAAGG`, the log2 enrichment was 0.122.
`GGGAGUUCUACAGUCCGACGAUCCACAGACAACACGCACCCACACAGACACAGAGGGAAGGGGUUGGGAUGGGGAUAGGGUGCACAGCAGGGCGGGGUAGGACCCCAGCCCCUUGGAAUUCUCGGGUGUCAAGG` gave a log2 enrichment of -0.0458.

Study 2
Target: NFE2, bZIP domain (human)
Method: DHFR protein complementation
Matrix: yeast
Setting: single substitutions, most at no-binding floor
Baseline: wild-type JUN-FOS pair
Direction: higher = stronger binding
Parent: JUN, bZIP domain (human); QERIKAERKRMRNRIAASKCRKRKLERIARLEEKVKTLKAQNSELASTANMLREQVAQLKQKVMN; partner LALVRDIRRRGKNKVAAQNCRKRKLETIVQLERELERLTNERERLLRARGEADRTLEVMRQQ
`T37R` gave a binding fitness of -1.27 natural log.
For `T37D`, the binding fitness was -1.31 natural log.
With `R30E` the binding fitness was -1.41 natural log.
`Q41L` gave a binding fitness of -1.52 natural log.
With `V56N` the binding fitness was -1.48 natural log.
The binding fitness of `L38S` is reported as -1.53 natural log.
For `L31N`, the binding fitness was -1.41 natural log.
With `L45E` the binding fitness was -1.54 natural log.
`Q55L` has a binding fitness of -1.44 natural log.
The binding fitness of `Q41G` is reported as -1.4 natural log.
For `A49P`, the binding fitness was -1.57 natural log.
`Q41H` gave a binding fitness of -1.46 natural log.
`R30M` has a binding fitness of -1.4 natural log.
`E32T` gave a binding fitness of -1.47 natural log.
With `A49N` the binding fitness was -1.46 natural log.
`K36R` has a binding fitness of -1.35 natural log.
The binding fitness of `M51H` is reported as -1.48 natural log.
With `L52N` the binding fitness was -1.36 natural log.

Study 3
Target: Interferon regulatory factor 7, full length, phosphomimetic (IRF7, Homo sapiens, UniProt Q92985, residues 1-503, S471D/S472D/S475D/S476D/S477D/S483D/S484D/S487D)
Method: protein-binding microarray
Form: double-stranded DNA, one strand shown
Matrix: in vitro
Tested at: 2200 nM top
Setting: 60-bp whole probe
With: salmon DNA 0.4 mg/ml
Baseline: random background probes
Direction: higher = stronger binding
Shared flanks, not repeated: GCCTAGCAC … GTCTTGATTCGCTTGACGCTGCTG
Residues (chain): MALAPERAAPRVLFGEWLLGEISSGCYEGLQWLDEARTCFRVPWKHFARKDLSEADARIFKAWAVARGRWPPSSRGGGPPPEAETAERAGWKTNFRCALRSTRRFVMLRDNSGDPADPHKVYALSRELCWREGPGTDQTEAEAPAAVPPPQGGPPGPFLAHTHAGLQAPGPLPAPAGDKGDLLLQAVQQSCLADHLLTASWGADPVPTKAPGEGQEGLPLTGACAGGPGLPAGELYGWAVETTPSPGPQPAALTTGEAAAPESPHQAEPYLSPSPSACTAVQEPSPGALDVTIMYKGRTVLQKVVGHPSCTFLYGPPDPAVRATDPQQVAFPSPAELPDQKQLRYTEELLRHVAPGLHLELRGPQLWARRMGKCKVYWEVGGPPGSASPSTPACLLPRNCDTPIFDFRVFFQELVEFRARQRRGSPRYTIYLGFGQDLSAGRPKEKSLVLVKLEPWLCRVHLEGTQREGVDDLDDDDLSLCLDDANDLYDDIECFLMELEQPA
`TCAACCATCCCTTATAAAACTGTGCTA`: “fitted relative affinity” 0.618 z-score.
`TTAGAACTGGGGTTTCGAATAGTGCTA`: “fitted relative affinity” 0.71 z-score.
Under “fitted relative affinity”, `TGCTTTCTCTTTCACTACTCGTGCTAG` is recorded as 8.7 z-score.
`GACGATCTCAGGCTCGAGACGTGCTAG` — result for “fitted relative affinity”: 0.0774 z-score.
`TTAGAACTGAGTATCGAGTAGTGCTAG`: “fitted relative affinity” -0.496 z-score.
`GACGGTTTCGACAGTGGGGACGTGCTA`: “fitted relative affinity” 1.83 z-score.
`TTAGGACTGGGACGGGGTTAGTGCTAG`: “fitted relative affinity” -0.172 z-score.
`ACCCATCTCAAGTAGCCTAGCGTGCTA` — result for “fitted relative affinity”: 0.344 z-score.
For `TTAGGTTTGGGTCTCGGTTAGTGCTAG`, “fitted relative affinity” read 0.846 z-score.
`TTAGGACTGGACCCTGGGTTAGTGCTA`: “fitted relative affinity” -0.917 z-score.
`GACGGTATCGGGCCTGGGGACGTGCTA` — result for “fitted relative affinity”: -0.827 z-score.
Under “fitted relative affinity”, `GACGGTTGCGGTTCCGGGACGTGCTAG` is recorded as 1.22 z-score.
Under “fitted relative affinity”, `CCAGTTCTGGGAAATATTTACGTGCTA` is recorded as 0.0696 z-score.
For `GACGATTTCATTTTCGAGACGTGCTAG`, “fitted relative affinity” read 5.76 z-score.
`GACGGTATCGGGACTGCGGACGTGCTA` — result for “fitted relative affinity”: -0.655 z-score.
Under “fitted relative affinity”, `TCAGAGTCCTGTTTGATACTGTGCTAG` is recorded as 1.04 z-score.
`TCAAGTTTACCCATCTCACTGTGCTAG` — result for “fitted relative affinity”: 1.04 z-score.
For `CATTGCTTGTGTTTATTGTGGTGCTAG`, “fitted relative affinity” read 1.47 z-score.
`ATAGATTTCAGTTTCGATTAGTGCTAG`: “fitted relative affinity” 8.17 z-score.

Study 4
Target: RNA binding protein fox-1 homolog 2, RRM domain, GST-SBP tag (RBFOX2, Homo sapiens, UniProt O43251-10, residues 100-194)
Method: RNA Bind-n-Seq
Form: RNA
Matrix: in vitro
Tested at: 365 nM
Setting: natural RNA segment, single round, ends assumed
Baseline: no-protein control
Direction: higher = stronger binding
Target sequence (chain): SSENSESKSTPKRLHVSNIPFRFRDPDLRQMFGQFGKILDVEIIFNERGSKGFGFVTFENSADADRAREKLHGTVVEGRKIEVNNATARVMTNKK
`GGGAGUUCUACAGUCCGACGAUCACAUUAAACUUUUUUAAAGUAAAGGAGAUGGUAGAUACCGUUAGAUUAUAGUCUUGAGGUUCAUGUGAAGCCAGUGGUGUUAACUUACUUUGAUUUCCUUGUUCAGGUCAUGGAAUUCUCGGGUGCCAA` — result for “RBNS enrichment (R)”: 0.284.
Under “RBNS enrichment (R)”, `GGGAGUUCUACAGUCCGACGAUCCAGCCCUGGCAAAGGGCUUCUGCUCACCACAGAUCUAUAGCCAGUCUGAAUAGAGGAAGAGAGAACCCCACAACAGCCAUACACGGGUAGUGUCCCUUUCCUCUCAGAGCUGGAAUUCUCGGGUGCCAA` is recorded as 0.225.
Under “RBNS enrichment (R)”, `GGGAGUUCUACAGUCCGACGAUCCACACCCGCCUUUCUUGAAUGGCUUCGUGUUACUCAGCCGUGCCCUGGCAGGAAUGGAACUCCAUCAGGGAACAGGGCAGCUCUGUUUGAAUGGGGUGAAAAACAGCAAAUGGAAUUCUCGGGUGCCAA` is recorded as 0.742.
For `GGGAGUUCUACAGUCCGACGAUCAGUUCCCACAGCUUGUGUCGUGAAAGAGCAGAGAGAUGAUGUUAAACUCCUUGGGAGGAGAGAGGGCUUCUUUUGGUUUCCCUGGAGUGAGACAGCCAGGUGUCUUUCUUUGGAAUUCUCGGGUGCCAA`, “RBNS enrichment (R)” read 1.8.
`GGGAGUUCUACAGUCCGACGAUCCCCAAGGUUCUAUCCUGUUCCGAGCAACUUUUCUAAUUAUAAACAUCACAGAACAUCCUGGAUCAAAGCGUGUGUCUUGCUCUGUCUCUAUCCUUGCUUGCAGCUCUUAGUGGAAUUCUCGGGUGCCAA` — result for “RBNS enrichment (R)”: 0.993.
For `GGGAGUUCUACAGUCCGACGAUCAUUCUAGAAGGUAUGCGAUCAAACUUUUUAAAGAAAGAAAAUACUUUUUGACUCAUGGUUUAAAGGCAUCCUUUCCAUCUUGGGGAGGUCAUGGGUGCUCCUGGCAACUUUGGAAUUCUCGGGUGCCAA`, “RBNS enrichment (R)” read 0.428.
`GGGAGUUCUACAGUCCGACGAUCUGCAUGCUUCCCGAUGGCCCACGGCAGGAGGUGUGUGGAAGUGUAAGGCCUAAGAUGCUCACAGAGGUCCCUCAUGACCUCCCUUCCCCAACUCCCGAAUCCUCUCUUGAUGGAAUUCUCGGGUGCCAA` — result for “RBNS enrichment (R)”: 0.28.
Under “RBNS enrichment (R)”, `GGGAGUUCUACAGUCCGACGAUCGGUCAGUUUCAUGGUGAUGGCUACUGUGUACUGUGUAGGUUACCUGGGUCAAGACUGGUCCAGCUUAGAGUGCAUGCUCUGUUCAUACUCAGCCUAGCUCACAGUGACUUUGGAAUUCUCGGGUGCCAA` is recorded as 2.62.

Repeated from above (study 2):
With `L52N` the binding fitness was -1.36 natural log.
The binding fitness of `Q41G` is reported as -1.4 natural log.
`Q41L` gave a binding fitness of -1.52 natural log.
`Q41H` gave a binding fitness of -1.46 natural log.
`Q55L` has a binding fitness of -1.44 natural log.
